Published values gathered from unrelated publications.
Protocols differ between the studies behind these lines. ± gives the spread as reported.

Compound | test | system | setting | tissue uptake [%ID/g]
CC(F)C(=O)NCCOCCOCCOCC(=O)N[C@@H](CCC(=O)NCCCC[C@@H]1NC(=O)[C@@H](Cc2ccc(O)cc2)NC(=O)[C@H](CC(=O)O)NC(=O)CNC(=O)[C@H](CCCNC(=N)N)NC1=O)C(=O)NCCCC[C@@H]1NC(=O)[C@@H](Cc2ccc(O)cc2)NC(=O)[C@H](CC(=O)O)NC(=O)CNC(=O)[C@H](CCCNC(=N)N)NC1=O (stereo partly shown) [fluorine-18 labelled] | small-animal PET | female athymic nude mice, U-87 MG xenograft, kidney | intravenous, 3.7 MBq, 60 min | 2.88 ± 0.42
O=C([O-])c1cccc(CN(CCN(Cc2cn(Cc3ccccc3)nn2)Cc2cccc(C(=O)[O-])n2)Cc2cn(Cc3ccccc3)nn2)n1.[64Cu+2] |  | healthy athymic nude mice, blood | intravenous, 15 min | 1.72
N=C(N)NCCC[C@H](NC(=O)[C@@H]1CSSC[C@H](NC(=O)[C@H](Cc2ccc3ccccc3c2)NC(=O)[C@H](CCCNC(=N)N)NC(=O)[C@H](CCCNC(=N)N)NC(=O)CN2CCN(CC(=O)O)CCN(CC(=O)O)CCN(CC(=O)O)CC2)C(=O)N[C@@H](Cc2ccc(O)cc2)C(=O)N[C@@H](CCCNC(N)=O)C(=O)N[C@@H](CCCCN)C(=O)N[C@H](CCCCN)C(=O)N2CCC[C@H]2C(=O)N[C@@H](Cc2ccc(O)cc2)C(=O)N[C@@H](CCCNC(=N)N)C(=O)N[C@@H](CCCNC(N)=O)C(=O)N1)C(N)=O [copper-64 labelled] | PET | tumour-bearing mice, blood | 100 µCi, 4 h | 0.35 ± 0.08
CCCC[C@@H]1NC(=O)[C@@H](NC(=O)[C@H](CCC(=O)O)NC(=O)CNC(=O)CN2CCN(CC(=O)O)CCN(CC(=O)O)CCN(CC(=O)O)CC2)CCCCNC(=O)C[C@@H](C(N)=O)NC(=O)[C@H](C(C)C)NC(=O)[C@@H]2CCCN2C(=O)[C@H](CCCNC(=N)N)NC(=O)CNC(=O)[C@H](Cc2c[nH]c3ccccc23)NC(=O)[C@H](CCCNC(=N)N)NC(=O)[C@@H](Cc2ccccc2)NC(=O)[C@H](Cc2c[nH]cn2)NC(=O)[C@H](CCC(=O)O)NC1=O [gallium-67 labelled] |  | C57 mice, B16/F10 lung metastases, kidneys | intravenous, 0.037 MBq/mouse, 4 h | 28.8 ± 4.3
CCCC[C@H](NC(=O)CNC(=O)CNC(=O)CN1CCN(CC(=O)O)CCN(CC(=O)O)CCN(CC(=O)O)CC1)C(=O)N[C@H]1CC(=O)NCCCC[C@@H](C(N)=O)NC(=O)[C@H](Cc2c[nH]c3ccccc23)NC(=O)[C@H](CCCNC(=N)N)NC(=O)[C@@H](Cc2ccccc2)NC(=O)[C@H](Cc2c[nH]cn2)NC1=O [gallium-67 labelled] |  | female C57 mice, B16/F1 melanoma, kidneys | intravenous, 0.037 MBq, 2 h | 8.9 ± 1.81
CC(F)C(=O)NC[C@@H]1O[C@H](C(=O)N[C@@H](CCC(=O)NCCCC[C@@H]2NC(=O)[C@@H](Cc3ccc(O)cc3)NC(=O)[C@H](CC(=O)O)NC(=O)CNC(=O)[C@H](CCCNC(=N)N)NC2=O)C(=O)NCCCC[C@@H]2NC(=O)[C@@H](Cc3ccc(O)cc3)NC(=O)[C@H](CC(=O)O)NC(=O)CNC(=O)[C@H](CCCNC(=N)N)NC2=O)[C@H](O)[C@H](O)[C@H]1O (stereo partly shown) [fluorine-18 labelled] | small-animal PET | female athymic nude mice, U-87 MG xenograft, liver | intravenous, 3.7 MBq, 60 min | 0.54 ± 0.14
CC(C)[C@H](NC(=O)[C@@H]1CCCN1C(=O)[C@H](CCCNC(=N)N)NC(=O)[C@H](CS)NC(=O)[C@H](Cc1c[nH]c2ccccc12)NC(=O)[C@H](CCCNC(=N)N)NC(=O)[C@@H](Cc1ccccc1)NC(=O)[C@H](Cc1c[nH]cn1)NC(=O)[C@H](CCC(=O)O)NC(=O)[C@H](CS)NC(=O)[C@H](CS)NC(=O)CNC(=O)[C@@H]1CC(=O)N[C@@H](CCCNC(=N)N)C(=O)NCC(=O)N[C@@H](CC(=O)O)C(=O)N[C@H](Cc2ccc(O)cc2)C(=O)N1)C(N)=O [technetium-99m labelled] |  | C57 mice B16/F1 melanoma female, lung | iv, 2 h, added: NDP-MSH 10 µg co-injected | 2.84 ± 2.62
N=C(N)NCCC[C@@H]1NC(=O)[C@H](CCCCNC(=O)CON=C[C@H](F)[C@@H](O)[C@H](O)[C@H](O)CO)NC(=O)[C@@H](Cc2ccc(O)cc2)NC(=O)[C@H](CC(=O)O)NC(=O)CNC1=O [fluorine-18 labelled] |  | nude mice U-87 MG tumour, kidney | intravenous, 2 h | 16.1 ± 13
CCCC[C@H](NC(=O)CNC(=O)CNC(=O)CN1CCN(CC(=O)O)CCN(CC(=O)O)CCN(CC(=O)O)CC1)C(=O)N[C@H]1CC(=O)NCCCC[C@@H](C(N)=O)NC(=O)[C@H](Cc2c[nH]c3ccccc23)NC(=O)[C@H](CCCNC(=N)N)NC(=O)[C@@H](Cc2ccccc2)NC(=O)[C@H](Cc2c[nH]cn2)NC1=O [lead-203 labelled] |  | C57 mice with metastatic melanoma, lung | intravenous, 0.056 MBq, 24 h | 3.9 ± 0.18
O=C(NCCCN(CCCCN(CCCNC(=O)c1cccc(=O)n1[O-])C(=O)c1cccc(=O)n1[O-])C(=O)c1cccc(=O)n1[O-])c1cccc(=O)n1[O-].[89Zr+4] |  | healthy athymic nude mice, gall bladder | intravenous, 1 h | 6.94 ± 3.38

Excerpt of the above:
Compound | test | system | setting | tissue uptake [%ID/g]
N=C(N)NCCC[C@@H]1NC(=O)[C@H](CCCCNC(=O)CON=C[C@H](F)[C@@H](O)[C@H](O)[C@H](O)CO)NC(=O)[C@@H](Cc2ccc(O)cc2)NC(=O)[C@H](CC(=O)O)NC(=O)CNC1=O [fluorine-18 labelled] |  | nude mice U-87 MG tumour, kidney | intravenous, 2 h | 16.1 ± 13
